Measurements gathered from unrelated publications.
Compare with care: the assays were run in different laboratories. ± marks the error that the study gave.

Cn1cncc1[C@@](N)(c1ccc(Cl)cc1)c1ccc2c(c1)c(-c1cccc(Cl)c1)cc(=O)n2C — half-life (human, plasma; oral, 300 mg/m^2, median, first dose): 4.7 h
COc1ccc(F)cc1C(=O)NCc1ccc(-c2nn([C@@H](C)C(F)(F)F)c(N)c2C(N)=O)cc1 — half-life (human patients, blood; oral, dose not given, once daily dosing): ~20 h
Cc1nc(Nc2ncc(C(=O)Nc3c(C)cccc3Cl)s2)cc(N2CCN(CCO)CC2)n1 — half-life (human patients; oral, 65 mg/m^2, day 42): 5.7 ± 2.1 h
CCCCCCCOc1ccc(CCC(N)(CO)CO)cc1C(F)(F)F.Cl — half-life (healthy human males, plasma; oral, 0.125 mg, day 21): 415 h
CC(=O)O[C@H]1C(=O)[C@@]2(C)[C@H]([C@H](OC(=O)c3ccccc3)[C@]3(O)C[C@H](OC(=O)[C@H](O)[C@@H](NC(=O)c4ccccc4)c4ccccc4)C(C)=C1C3(C)C)[C@]1(OC(C)=O)CO[C@@H]1C[C@@H]2O — half-life (human, plasma; intravenous infusion, 60 mg/m^2, cycle 1 day 15, with oral co-drug daily): 9.54 h
COC(=O)C(Cc1cccc(OC)c1C)NC(=O)CNCc1ccccc1 (stereo not shown) — half-life (human; 1 µM): > 2 h
Cc1cc(/C=C/C#N)cc(C)c1Nc1ccnc(Nc2ccc(C#N)cc2)n1 — half-life (human, normal renal function, plasma; oral, fixed-dose combination): 33.5 h
N#Cc1cc(NC(=O)[C@H]2c3ccccc3C(=O)N(CC(F)(F)F)[C@@H]2c2cccnc2)ccc1F — half-life (human, plasma; oral, 75 mg, median): 17.6 h
C#C[C@]1(CO)O[C@@H](n2cnc3c(N)nc(F)nc32)C[C@@H]1O — half-life (human, plasma; oral, 30 mg, single dose, geometric mean): 48.7 h
CC(C)n1nc(-c2ccc3oc(N)nc3c2)c2c(N)ncnc21 — half-life (human patients, plasma; oral, 3 mg once daily, cycle 1 day 15, dose expansion): 8.4 h
CC1(C)CC[C@]2(NC(=O)C(C)(F)F)CC[C@]3(C)[C@H](C(=O)C=C4[C@@]5(C)C=C(C#N)C(=O)C(C)(C)[C@@H]5CC[C@]43C)[C@@H]2C1 — half-life (geometric mean; human, plasma; oral, 150 mg single dose, given alone): 89.8 h
CCCn1cc(C)c2c(=O)[nH]c(-c3cc(S(=O)(=O)N4CCN(CC)CC4)ccc3OCC)nc21 — half-life (LC-MS/MS; human, plasma; 100 mg, crossover trial, alone): 5.71 ± 1.56 h
C[C@@H](Oc1ccc(S(C)(=O)=O)cc1C(=O)N1C[C@@H]2C[C@]2(c2cc(C(F)(F)F)on2)C1)C(F)(F)F — half-life (LC-MS/MS; young human subjects, plasma; oral, 75 mg twice daily, steady state, multiple doses): 34.2 h
CN[C@@H](C)C(=O)N[C@H]1CN(S(=O)(=O)c2cccc(S(=O)(=O)N3CC[C@H]4CC[C@@H](C(=O)NC(c5ccccc5)c5ccccc5)N4C(=O)[C@@H](NC(=O)[C@H](C)NC)C3)c2)CC[C@H]2CC[C@@H](C(=O)NC(c3ccccc3)c3ccccc3)N2C1=O — half-life (LC-MS/MS, noncompartmental; human, plasma; 30 mg, cycle 1 day 1): 3.02 ± 2.43 h
CC(=O)c1c(C)c2cnc(Nc3ccc(N4CCNCC4)cn3)nc2n(C2CCCC2)c1=O — half-life (noncompartmental LC-MS/MS; human patients, plasma; oral, 75 mg, cycle 1 day 15, with: neratinib 200 mg): 23 h
Cc1nc(-c2ccc(OCC(C)C)c(C#N)c2)sc1C(=O)O — half-life (human, plasma; oral, 10 mg once daily, with: verinurad 2.5 mg): 7.22 h
C#C[C@]1(COP(=O)(O)O)O[C@@H](n2cnc3c(N)nc(F)nc32)C[C@@H]1O — half-life (refers to: islatravir triphosphate; human, PBMC; oral, 400 mg single dose): 127 h
O=C(COc1ccc(Cl)cc1)NC12CC(c3nnc([C@H]4C[C@@H](OC(F)(F)F)C4)o3)(C1)C2 — half-life (healthy human volunteers fasted, plasma; oral, 45 mg single dose, geometric mean): 30.4 h
CC(C)NC(=O)COc1cccc(-c2nc(Nc3ccc4[nH]ncc4c3)c3ccccc3n2)c1 — half-life (human male, plasma; oral, 200 mg, day 6, fed, alone, geometric mean): 5 h
CCN(CC)Cc1cc(Nc2ccnc3cc(Cl)ccc23)ccc1O — half-life (human, both sexes, plasma; oral, dose not given, fixed-dose combination): 1.63 h
CC(C)(Sc1ccncc1-c1ccc(C#N)c2ccccc12)C(=O)O — half-life (human, plasma; oral, 5 mg once daily, with: febuxostat 20 mg): 13.2 h
CCN1CCN(Cc2ccc(Nc3ncc(F)c(-c4cc(F)c5nc(C)n(C(C)C)c5c4)n3)nc2)CC1 — half-life (healthy human, fasted; oral, 150 mg, 3 x 50 mg tablets): 25.6 h
NCc1cc2c(cc1F)C(=O)N(C1CCC(=O)NC1=O)C2 (stereo not shown) — half-life (human, mixed sex, whole blood): > 3 h
COc1cc([C@@H]2Oc3ccc([C@H]4Oc5cc(O)cc(O)c5C(=O)[C@@H]4O)cc3O[C@H]2CO)ccc1O — half-life (OATP1B1/1B3 humanized mice, plasma; oral gavage, 500 mg/kg silymarin): 0.36 h
CC#CC(=O)N1CC[C@@H](n2c(=O)n(-c3ccc(Oc4ccccc4)cc3)c3c(N)ncnc32)C1 — half-life (human, fasting, plasma; oral, 160 mg once daily, cycle 1 day 28): ~5.4 h
COc1ncc(-c2nc3c(n2C(C)C)[C@H](c2ccc(Cl)cc2)N(c2cc(Cl)cn(C)c2=O)C3=O)c(OC)n1 — half-life (human, plasma; oral, 200 mg, C2D1, high-dose, median): 6.8 h
CN(C)N=Nc1[nH]cnc1C(N)=O — half-life (human patients, plasma; intravenous, 1000 mg/m^2 over 1 h, cycle 2 day 1, co-administered with another drug): 2.62 h
C[C@@H](Nc1cc(F)cc(F)c1)c1cc(C(=O)N(C)C)cc2c(=O)cc(N3CCOCC3)oc12 — half-life (human, plasma; oral, 180 mg single dose, day 1, range, 5:2 twice daily schedule): 4.29 to 7.86 h
CC1(COc2ccc3c(c2)ncn3-c2ccc3cccc(N4CCC(N)CC4)c3n2)COC1 — half-life (human patients, recurrent/progressive HGG or DIPG, serum; oral, 130 mg/m^2, day 28, median): 6.3 h
C[C@@H](N)c1cc(Cl)ccc1Cn1c(=S)[nH]c(=O)c2[nH]ccc21 — half-life (human, both sexes, matched healthy controls; oral, 2.5 mg single dose, geometric mean): ~50 h
Cc1ccc([C@@H]2O[C@H](CO)[C@@H](O)[C@H](O)[C@H]2O)cc1Cc1ccc(-c2ccc(F)cc2)s1 — half-life (human, maintenance hemodialysis patients; oral, 300 mg once daily, steady state, median): 10.4 h
COc1ccc([C@@H](O)c2cc(-c3ncnc4cc(N5CCOCC5)ccc34)c(F)cc2Cl)nn1 — half-life (human, plasma; oral, 300 mg twice daily, single dose, geometric mean): 5.24 h
NC[C@@]1(CC(=O)O)[C@@H]2CC[C@H]3C[C@@H]2[C@@H]1C3 — half-life (human, moderate renal impairment, plasma; oral, 20 mg single dose, geometric mean): 5.98 h
C#Cc1cccc(Nc2ncnc3cc(OCCOC)c(OCCOC)cc23)c1 — half-life (human, plasma; oral, 100 mg): 15 to 19 h
COC(=O)N[C@H](C(=O)N1CCC[C@H]1c1nc2cc([C@H]3CC[C@H](c4cc5nc([C@@H]6CCCN6C(=O)[C@@H](NC(=O)OC)[C@@H](C)OC)[nH]c5cc4F)N3c3cc(F)c(N4CCC(c5ccc(F)cc5)CC4)c(F)c3)c(F)cc2[nH]1)[C@@H](C)OC — half-life (healthy human subjects, plasma; oral, with: carbamazepine twice daily): 12 h
COC(=O)N[C@@H](C)CNc1nccc(-c2cn(C(C)C)nc2-c2cc(Cl)cc(NS(C)(=O)=O)c2F)n1 — half-life (human patients, plasma; oral, 450 mg twice daily, day 14, steady state, median, with: binimetinib 45 mg once daily): 4.43 h
C=CC(=O)N(C)CCOc1c(N)ncnc1-c1cc(F)cc(NC(=O)c2ccc(C3CC3)cc2F)c1C — half-life (human, whole blood; oral, 200 mg, single ascending dose, median): 3.22 h
O=C(O)CCC(=O)O.[2H]C([2H])([2H])Oc1cc(C)c2[nH]ccc2c1CN1CC[C@@H](C2CC2)C[C@H]1c1ccc(C(=O)O)cc1 — half-life (LC-MS/MS, mean; human, plasma; 50 mg, single dose, fasting): 21.1 h
Cc1noc(C)c1-c1cc(C(O)(c2ccccn2)c2ccccn2)c2nc(C3CC3)[nH]c2c1 — half-life (human patients, plasma; oral, 1.4 mg, cycle 1 day 8, monotherapy): 28.7 h
C[C@H](Oc1ccc(Br)cc1-c1ccon1)C(=O)O — half-life (LC-MS/MS, non-compartmental; human, plasma; 400 mg once daily, day 10, multiple ascending dose, mean): 4.82 h
NC(CO)(CO)CCc1ccc(Sc2cccc(OCc3ccccc3)c2)cc1Cl — half-life (human, whole blood; oral, 3 mg, mean, with: itraconazole 200 mg once daily): 111 h
Nc1ccn([C@@H]2O[C@H](CO)[C@@H](O)C2(F)F)c(=O)n1 — half-life (HPLC-UV; human, plasma; intravenous, 800 mg/m^2, median, after paricalcitol): 3.71 h
Cc1cc(C)c(CNC(=O)c2cc(Cl)c3c(c2C)O[C@@](C)([C@H]2CC[C@H](N(C)C)CC2)O3)c(=O)[nH]1 — half-life (mean; healthy male humans, plasma; oral, 25 mg, day 11, with: itraconazole): 39.2 h
CO[C@H]1C[C@@H]2CC[C@@H](C)[C@@](O)(O2)C(=O)C(=O)N2CCCC[C@H]2C(=O)O[C@H]([C@H](C)C[C@@H]2CC[C@@H](OC(=O)NCCOCCOCCOCCOCCOCCOCCOCCOCCC(=O)N3CCc4cc(Cn5nc(-c6ccc7oc(N)nc7c6)c6c(N)ncnc65)ccc4C3)[C@H](OC)C2)C[C@@H](O)[C@H](C)/C=C(\C)[C@@H](O)[C@@H](OC)C(=O)[C@H](C)C[C@H](C)/C=C/C=C/C=C/1C — half-life (human, plasma; intravenous, 8 mg, cycle 1 day 1, arithmetic mean): 5.7 h
CC(C)[C@H](N)C(=O)NCCCS(=O)(=O)O — half-life (human, plasma; oral, 256.5 mg once daily, day 1, fed, capsule): 1.07 h
CCN1CCN(Cc2ccc(Nc3ncc(F)c(-c4cc(F)c5nc6n(c5c4)[C@H](C)CCC6)n3)nc2)CC1 — half-life (human, plasma; 200 mg single dose, mean): 35.9 h
